Published values pooled from the literature.
Values joined by “and” are separate records of one study, mostly repeats; a detail may differ.
Target: MAP kinase-interacting serine/threonine-protein kinase 1 (MKNK1, Homo sapiens, UniProt Q9BUB5)
UniProt Q9BUB5, sequence (whole entry, looked up): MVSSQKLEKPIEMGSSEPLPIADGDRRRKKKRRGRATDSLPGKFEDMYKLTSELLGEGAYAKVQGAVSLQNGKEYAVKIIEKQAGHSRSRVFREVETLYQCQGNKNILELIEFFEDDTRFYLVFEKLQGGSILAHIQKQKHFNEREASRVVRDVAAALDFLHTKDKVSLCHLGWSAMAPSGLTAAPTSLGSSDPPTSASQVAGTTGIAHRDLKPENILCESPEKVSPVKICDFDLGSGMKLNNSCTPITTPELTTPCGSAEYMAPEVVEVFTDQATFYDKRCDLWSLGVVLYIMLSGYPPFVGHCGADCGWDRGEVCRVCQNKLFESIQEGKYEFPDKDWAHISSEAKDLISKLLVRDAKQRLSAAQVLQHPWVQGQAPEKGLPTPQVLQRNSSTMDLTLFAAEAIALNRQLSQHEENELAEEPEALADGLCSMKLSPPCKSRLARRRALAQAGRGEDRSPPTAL

Compound | assay | conditions | how to read | measurement | value
CNC(=O)C1CCN(c2cc(C)c(F)cc2NC(=O)c2ccc(-c3cc(O)ccc3C)c(C)c2)CC1 | binding, competition with immobilised ligand | 1 µM |  | remaining binding | 93%
CC(C)=CC1OC(C)(C)C2C=C3C(=O)C(Cl)=CC(O)C3C3C(O)C4OC4C(=O)C132 (stereo not drawn) | cell-free assay, competition with immobilised ligand | 10 µM |  | remaining binding | 100%
CCn1cc(C(=O)O)c(=O)c2c(N)c(F)c(NC3CCCCC3)cc21 | kinase activity | 0.1 µM, added: ATP at Km |  | inhibition | -7.2%
C=CC(=O)Nc1cccc(-c2cnc3[nH]cc(C(=O)NC(C)(C)C)c3n2)c1 | kinase activity | 0.1 µM |  | inhibition | 6% and 10%
NC(=O)C[C@H]1CCc2sc3ncnc(O[C@H]4CC[C@H](N5CCOCC5)CC4)c3c21 | enzyme activity, inhibitor | 10 µM |  | inhibition | 1%
CN1CCN(Cc2ccc(NC(=O)c3cccc(C#Cc4cnc(N)c5ncccc45)c3)cc2C(F)(F)F)CC1 | cell-free assay, competition with immobilised ligand | 0.5 µM |  | remaining binding | 3.3%
C=CC(=O)N1CCc2ccc(-n3c(=O)ccc4cnc5ccc(-c6cnn(C)c6)cc5c43)cc21 | KINOMEscan | 1 µM | baseline: DMSO control | remaining binding | 100%
Cc1cccc(-c2ccc3nc(NC(=O)C4CCOCC4)nn3c2)c1 | enzyme activity, Dundee kinase panel | 10 µM |  | remaining activity | 84%
O=C(Cc1ccc(OCc2ccccc2)cc1)NC1(C(=O)O)CCN(C(=O)c2ccc(-c3cccc(Cl)c3)cc2)CC1 | enzyme activity, inhibitor | 10 µM |  | activity vs control | 132%
C=CC(=O)N1CCCC(n2c(=O)c3ncccc3n(Cc3ccc(Oc4ccccc4)cc3)c2=O)C1 (stereo not drawn) | cell-free assay, competition with immobilised ligand | 1 µM |  | remaining binding | 86%
CCN1CCN(Cc2ccc(C(=O)Nc3ccc(C)c(NCc4cnc5[nH]ccc5c4OC)c3)cc2C(F)(F)F)CC1 | binding, competition with immobilised ligand | 1 µM |  | remaining binding | 51%
Nc1nc(Nc2ccccc2)sc1C(=O)c1ccccc1 | enzyme activity, inhibitor | 10 µM |  | remaining activity | 71%
Cc1cccc(O[C@H]2CCC[C@@H](C(C)CNCc3ccncc3)C2)c1 (relative stereo) | enzyme activity, inhibitor | 10 µM |  | inhibition | -7%
Cc1cccc(-c2ccc3nc(NC(=O)C4CCCCC4)nn3c2)c1 | enzyme activity, Dundee kinase panel | 10 µM |  | remaining activity | 82%
COc1cc(Nc2nccc(-c3cnn4nc(OC)ccc34)n2)cc(C(F)(F)F)c1 | binding, competition with immobilised ligand | 1 µM |  | remaining binding | 87%
Cc1cnc2nc1Nc1cccc(c1)COC/C=C/COCc1cc(ccc1OCCN1CCOCC1)N2 | binding | 0.1 µM |  | remaining binding | 88%
CN1CCN(Cc2ccc(-c3ccc(CO[C@H]4CCC[C@@H]4NC(=O)c4cc(-c5cnn(C)c5)cnc4N)cc3)cc2)CC1 | enzyme activity, inhibitor | 0.1 µM |  | inhibition | -4%
Cc1ccc(-c2c(/C=C(\C#N)C(=O)NC(C)C)n(CCCO)c3ncnc(N)c23)cc1 | cell-free assay, competition with immobilised ligand | 1 µM |  | remaining binding | 73%

Repeated from above:
Compound | assay | conditions | how to read | measurement | value
Nc1nc(Nc2ccccc2)sc1C(=O)c1ccccc1 | enzyme activity, inhibitor | 10 µM |  | remaining activity | 71%
CNC(=O)C1CCN(c2cc(C)c(F)cc2NC(=O)c2ccc(-c3cc(O)ccc3C)c(C)c2)CC1 | binding, competition with immobilised ligand | 1 µM |  | remaining binding | 93%
